Published values pooled from the literature.
Each numbered part is a random draw from the data of one study; scales do not carry over between parts. “And” joins repeats or separate records; there may be more than shown.

Set 1
Target: Replicase polyprotein 1ab, nsp13 helicase (rep, Severe acute respiratory syndrome coronavirus 2, UniProt P0DTD1)
Mode: inhibitor
Concentration: 20 µM
Structure (SMILES)	inhibition
OCc1ccc(CO)o1	1.99%
CC1=C(C(=O)O)N2C(=O)[C@@H](NC(=O)[C@H](N)c3ccc(O)cc3)[C@H]2SC1	5.52%
CNCCn1c(=O)c2cc(OC)c(OC)cc2c2cnc3cc4c(cc3c21)OCO4	4.33%
O[C@@](Cc1ncc(CC2(C(F)(F)F)CC2)[nH]1)(c1ccc(-n2cccn2)cc1)C(F)(F)F	6.39%
CS(=O)(=O)c1ccc(-c2cc(Br)sc2-c2ccc(F)cc2)cc1	2.47%
COc1ccccc1Oc1c(NS(=O)(=O)c2ccc(C(C)(C)C)cc2)nc(-c2ncccn2)nc1OCCO	3.07%
CCCCCCCCCCCCC/C=C/[C@@H](O)[C@@H](N)COP(=O)([O-])OCC[N+](C)(C)C	8.67%
O=C(Nc1ccc(S(=O)(=O)Nc2ccccc2Cl)c(Cl)c1)c1ccccn1	8.02%
CC[C@H]1[C@@H](O)[C@@H]2[C@H](CC[C@]3(C)[C@@H]([C@H](C)CCC(=O)O)CC[C@@H]23)[C@@]2(C)CC[C@@H](O)C[C@@H]12	13.4% and 0.91%
C#Cc1cccc(Nc2ncnc3cc(OC)c(OCCCCCCC(=O)NO)cc23)c1	5.44%
CN(C)[C@@H](CCOc1cccc2ccccc12)c1ccccc1	9.6%
CC(C)NCC(O)c1ccccc1Cl (centres unmarked)	7.13%
NCc1ccc(S(N)(=O)=O)cc1	-1.64%
COc1cccc(CCc2ccccc2OCC[C@@H]2C[C@@H](O)CN2C)c1	-2.02%

Set 2
Target: Interferon regulatory factor 7, full length, phosphomimetic (IRF7, Homo sapiens, UniProt Q92985, residues 1-503, S471D/S472D/S475D/S476D/S477D/S483D/S484D/S487D)
Technique: protein-binding microarray
Form: double-stranded DNA, one strand shown
Matrix: in vitro
Concentration: 2200 nM top
Notes: 60-bp whole probe
Together with: salmon DNA 0.4 mg/ml
Baseline: random background probes
Reading: higher = stronger binding
Shared flanks, not repeated: GCCTAGCAC … GTCTTGATTCGCTTGACGCTGCTG
Target sequence (chain): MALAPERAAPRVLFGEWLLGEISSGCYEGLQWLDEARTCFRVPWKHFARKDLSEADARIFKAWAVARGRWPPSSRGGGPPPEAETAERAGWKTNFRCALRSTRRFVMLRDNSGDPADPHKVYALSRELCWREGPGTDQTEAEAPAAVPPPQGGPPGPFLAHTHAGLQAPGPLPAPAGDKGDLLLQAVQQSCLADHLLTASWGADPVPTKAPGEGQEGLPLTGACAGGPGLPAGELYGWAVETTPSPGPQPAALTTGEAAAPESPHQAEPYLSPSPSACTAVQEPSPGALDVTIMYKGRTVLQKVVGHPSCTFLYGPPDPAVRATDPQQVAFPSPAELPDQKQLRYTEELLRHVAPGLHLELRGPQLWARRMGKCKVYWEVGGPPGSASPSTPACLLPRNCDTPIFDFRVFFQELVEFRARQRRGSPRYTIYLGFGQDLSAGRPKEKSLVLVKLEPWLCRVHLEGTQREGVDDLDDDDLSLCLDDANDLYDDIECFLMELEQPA
Oligonucleotide	fitted relative affinity
TTAGGATTCGGTATCGGTTAGTGCTAG	1.79 z-score
GTAGAACTGGGGACTGGATTAGTGCTA	-0.359 z-score
GACGGTTTCGGTCTCGGGGCGTGCTAG	6.6 z-score
TCACCCCTTGCTTTCCAACTGTGCTAG	2.16 z-score
TTATGTATCCTTATCCTTTAGTGCTAG	1.86 z-score
CCTCTGCTCCTCTTTTTTTGGGTGCTA	1.56 z-score
GACGAATTCGGGTTTCGAGACGTGCTA	2.03 z-score
GACGATCTCAGTATCGTGACGTGCTAG	0.174 z-score

Set 3
Target: RNA binding protein fox-1 homolog 2, RRM domain, GST-SBP tag (RBFOX2, Homo sapiens, UniProt O43251-10, residues 100-194)
Technique: RNA Bind-n-Seq
Form: RNA
Matrix: in vitro
Concentration: 365 nM
Notes: natural RNA segment, single round, ends assumed
Baseline: no-protein control
Reading: higher = stronger binding
Shared flanks, not repeated: GGGAGUUCUACAGUCCGACGAUC … UGGAAUUCUCGGGUGCCAA
Oligonucleotide	RBNS enrichment (R)
UGACCCUGUUUCUCCUCAGAUGACAACCACCACUCCUGAGGUCUUUGUCCUCUCCUUGUCCCUUCAUCUUGGCUGGGCACAGUAUAUGAGUCCCCACGUGGUCGAGUCUG	0.507
AAUUAGAAGUGCCUCUGAGCCUUGUGAAGUGUGUGCGCAAGCCCCCAUGGAGAAAUGGAGACAUCUUGUCCCCACCUGAGGAGUGGACAUCUGCCUGAUUCUUGCCAACA	0.488
UCUGGUUCAGCAUACCUUAUAGUUCAUAUAUAACCUGUAUUAAUUGUAUAGAUUGUGCAUUAAAAGCUGUUACCAAGUUGUCAGAACAUAAGAGCGAAAACAAGGUCAUA	0.501
UCAGUGGUGCUUUUGUACCUAGGUUUUAUGUGAUUUUAAUGAAACAUGGAUAGUUGUGGCCACCUGCUGACUAUUUGUGGUUUAAAAUAAAAGGUUUACUUGUCUGCAGA	0.361
UUUUGGCAAAUAAAGUAUUAUUCUCUAUCAUCAUCUUUUGAAUUCCUGUCCCUAGUAUGUUCUUUCAUGUUCUGGGUAAAAUUUCCAACCCUCAAAGAGUCUAAAACGUC	0.778

Mixed results
Cell line: HEK-293T
Read-out: pseudovirus infection
Technique: FDA-approved drug library screen
Organism: VSV pseudotyped with SARS-CoV-2 spike
Concentration: 10 µM
Time: 16 h
Baseline: vehicle-treated
Compound	GFP-positive cells
C[C@H](CCC(=O)O)[C@H]1CC[C@H]2[C@@H]3[C@@H](O)C[C@@H]4C[C@H](O)CC[C@]4(C)[C@H]3CC[C@]12C	93%
C=CC[C@@H]1/C=C(\C)C[C@H](C)C[C@H](OC)[C@H]2O[C@@](O)(C(=O)C(=O)N3CCCC[C@H]3C(=O)O[C@H](/C(C)=C/[C@@H]3CC[C@@H](O)[C@H](OC)C3)[C@H](C)[C@@H](O)CC1=O)[C@H](C)C[C@@H]2OC	83.7%

A few entries again (set 3):
Oligonucleotide	RBNS enrichment (R)
AAUUAGAAGUGCCUCUGAGCCUUGUGAAGUGUGUGCGCAAGCCCCCAUGGAGAAAUGGAGACAUCUUGUCCCCACCUGAGGAGUGGACAUCUGCCUGAUUCUUGCCAACA	0.488
UCUGGUUCAGCAUACCUUAUAGUUCAUAUAUAACCUGUAUUAAUUGUAUAGAUUGUGCAUUAAAAGCUGUUACCAAGUUGUCAGAACAUAAGAGCGAAAACAAGGUCAUA	0.501
